Results gathered from unrelated publications.
Every numbered part comes from another study and shows a few of its results, in no order. Changes are numbered by the printed parent chain.

Block 1
Target: CREBRF, bZIP domain (human)
Method: DHFR protein complementation
Matrix: yeast
Setting: single substitutions, most at no-binding floor
Relative to: wild-type JUN-FOS pair
Reading: higher = stronger binding
Parent: JUN, bZIP domain (human); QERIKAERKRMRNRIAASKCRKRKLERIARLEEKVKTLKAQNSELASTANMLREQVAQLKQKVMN; partner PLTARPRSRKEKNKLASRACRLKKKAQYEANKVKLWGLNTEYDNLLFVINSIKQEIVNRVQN
Change	binding fitness [natural log]
A49E	-1.49
L38W	-1.49
L31E	-1.39
Q41A	-1.42
E44A	-1.25
L31N	-1.51
I28H	-1.42
V56E	-1.48
E44H	-1.18

Block 2
Target: Sal-like protein 4, full length isoform B (SALL4, Homo sapiens, UniProt Q9UJQ4-2, residues 1-616)
Method: universal PBM
Form: double-stranded DNA, one strand shown
Matrix: in vitro
Tested at: not given
Setting: 8-mer, flanks averaged, mean of replicates
Reading: higher = stronger binding
Target sequence (chain): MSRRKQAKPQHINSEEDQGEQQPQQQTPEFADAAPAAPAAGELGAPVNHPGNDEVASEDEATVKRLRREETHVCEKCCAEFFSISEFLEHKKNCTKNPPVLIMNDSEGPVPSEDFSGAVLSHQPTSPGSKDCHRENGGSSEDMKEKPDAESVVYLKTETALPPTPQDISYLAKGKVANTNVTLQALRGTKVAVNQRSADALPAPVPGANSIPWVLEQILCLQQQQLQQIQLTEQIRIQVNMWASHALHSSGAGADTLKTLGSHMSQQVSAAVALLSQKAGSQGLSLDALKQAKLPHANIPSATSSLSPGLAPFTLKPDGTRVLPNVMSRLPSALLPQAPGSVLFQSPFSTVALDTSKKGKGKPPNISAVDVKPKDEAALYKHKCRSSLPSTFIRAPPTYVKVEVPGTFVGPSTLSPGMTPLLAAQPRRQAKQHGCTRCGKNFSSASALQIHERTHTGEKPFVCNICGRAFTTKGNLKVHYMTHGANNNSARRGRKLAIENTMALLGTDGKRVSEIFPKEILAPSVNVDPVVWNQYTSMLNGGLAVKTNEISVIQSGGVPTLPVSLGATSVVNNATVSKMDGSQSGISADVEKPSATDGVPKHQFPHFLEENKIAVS
Sequence	E-score
GGCTACCA	-0.123
GCGTCAAC	-0.249
GCTAATTA	0.138
TCCTAGCA	-0.05
CAATGTCC	-0.125

Block 3
Target: CCNF, cyclin fold, Cln2 fusion (human)
Method: yeast growth competition, sequencing
Matrix: yeast
Setting: strong parent motif
Relative to: not given
Reading: higher = stronger binding
Parent: WEE1 docking peptide (human); HKTFRKLRLFDTP
Change	normalised enrichment score
HKTFYKLRLFDTP [R5Y]	1.37
HKTFRKLNLFDTP [R8N]	2.76
HKTFRQLRLFDTP [K6Q]	2.21
HQTFRKLRLFDTP [K2Q]	2.65
HKTFRKIRLFDTP [L7I]	2.83
HKTFRKLRLFDPP [T12P]	2.28
HKTFRKLRLWDTP [F10W]	2.89
HKTFRKLRLFITP [D11I]	2.1

Mixed results
Substance	target	assay	system	setting	how to read	quantity	result
PhoQ, residues 284 288 289 292 302 303 SSTMSV	PhoP, residues 12 14 15 18 19 LHTVM (Escherichia coli, UniProt P23836)	Sort-seq, measured: YFP reporter	E. coli	PhoQ-PhoP variant library, added: 10 µM Mg2+	relative to: high Mg2+ state, higher = stronger signaling	fold induction	9.47
